# Published values pooled from the literature.
# A part holds a random share of what one study measured.

# Study 1 — method: protein-binding microarray; form: double-stranded DNA, one strand shown; matrix: in vitro; concentration: 0.8 µM; notes: whole 60-bp probe, no competitor; direction: higher = stronger binding; constant ends, left off below: … GTCTTGATTCGCTTGACGCTGCTG
# Target: Centromere-binding protein 1, full length, N-terminal tag (CBF1, Saccharomyces cerevisiae, UniProt P17106, residues 1-351)
# Sequence of UniProt P17106 (whole entry, looked up): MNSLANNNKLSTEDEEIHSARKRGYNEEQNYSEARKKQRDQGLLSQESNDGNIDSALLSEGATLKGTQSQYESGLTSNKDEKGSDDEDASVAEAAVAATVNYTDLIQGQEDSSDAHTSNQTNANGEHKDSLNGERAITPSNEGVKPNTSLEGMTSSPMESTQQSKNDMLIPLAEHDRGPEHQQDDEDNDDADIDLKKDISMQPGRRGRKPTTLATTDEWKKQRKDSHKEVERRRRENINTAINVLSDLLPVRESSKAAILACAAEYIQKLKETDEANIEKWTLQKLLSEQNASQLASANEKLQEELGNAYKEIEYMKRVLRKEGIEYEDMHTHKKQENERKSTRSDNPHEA
Sequence,fluorescence intensity
TGTACGAAGCTATATGACGTATTTATAGTAGTTAGG,491 a.u.
CTAGAATGAGGAATAATCGTGATATTAGTAAATTTC,552 a.u.
CTAAATAATCATCATCACCATTATCACTGTTACTTC,562 a.u.
GAACTCTTTTCACTGCTCGTGCCGCTGCAACGCTAG,707 a.u.
GAAAAAACACAAAGGCACATGGTTGTATAGATCTAG,658 a.u.
GAAGATTAGAAATTCTTCGTGATTAATTCCTACTAG,504 a.u.
GAAAAGAGCTACGAGCACGTGCAAATATATGAATAG,13100 a.u.
CTAACAGCTCACTTGTGCATGAAGTTCATGTTTTTC,499 a.u.
GAAACGCTTTTACTTCACCCCATCTTATACTATTAG,536 a.u.

# Study 2 — target: human cyclin B1; effect on: peptide binding; method: yeast competitive growth sequencing; form: peptide; organism: Saccharomyces cerevisiae; strain: cyclin B1-Cln2 fusion; concentration: concentration not given; notes: peptide tiling library; direction: direction not given
Molecule,binding enrichment score
KDDDKAWEYEERDRRS,-0.0912
CFRCLLFSFSGRSGVE,-0.535
PQWPCGKHKRVLIFAS,-0.38
EPKTLFLGAGDFQF,0.438
PAKRRLELGE,-0.0285
NNIRKALSFDNRGEEH,0.334
ARKRLELGNLGNPQ,-0.119
GQLVIPLDELTLDTSF,0.986
DVSERGYVILPNDYFE,0.151

# Study 3 — method: RNA Bind-n-Seq; form: RNA; matrix: in vitro; concentration: not given; relative to: input RNA pool; direction: higher = stronger binding
# Target: RING finger protein unkempt homolog, zinc fingers 1-6, GST-SBP tag (UNK, Homo sapiens, UniProt Q9C0B0, residues 30-357)
# Sequence of UniProt Q9C0B0 (30-357, looked up): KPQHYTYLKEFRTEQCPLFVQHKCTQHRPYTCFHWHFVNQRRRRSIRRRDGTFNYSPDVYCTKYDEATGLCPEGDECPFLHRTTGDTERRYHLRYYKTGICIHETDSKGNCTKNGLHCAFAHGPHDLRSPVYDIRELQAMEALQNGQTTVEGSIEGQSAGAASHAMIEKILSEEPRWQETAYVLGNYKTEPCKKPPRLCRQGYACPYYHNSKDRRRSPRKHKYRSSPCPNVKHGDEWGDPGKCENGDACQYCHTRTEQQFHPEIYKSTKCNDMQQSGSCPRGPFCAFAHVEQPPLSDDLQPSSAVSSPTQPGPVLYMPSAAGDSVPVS
# Notes: RNA with constant flanks, human and mouse sites, ends assumed
# Constant ends, left off below: GGGAGUUCUACAGUCCGACGAUC … CAACAGAGGAUUGAGCAUCA
Sequence,bound/input enrichment [ratio]
CGGGAACUCAAACAUCUGAAUCAUCUUGAUAUCUCAGAUGAUAAACAGUUUACAUCAGACAUAGCUCUUCGCUUACUAGAACAAAAAGACAUCCUACCUAACCUUGUUUCUCUGGAUGUU,0.543
GCAGAAGAGUGCCCUGGUCAAGCGGCUCAAAGGGGCUCUAAUGCUAGAAAAUUUACAAAAACACUCAACACCCCAUGCUGCAUUCCAGCCAAAUUCACAGAUCGGGGAGGAAAUGAGCCA,5.72
AUAGUUUUACGAGAUAGCCUUCAUCAACCACAGUAUGUAGAGAAACUAGAAAAGAUUCUUCGCUUUGUCAUAAAAGAAAAAGCUCUGACCUUGCAAGAUCUUGAUAAUAUCUGGGCAGCA,2.91
UGGGUUACUCCUAUUAUUAUCAAGUAGCUGGAAUUGUGAAGGUCGGAGUAGUUAGAUCUUUAGCUUUUAUUCCUUAUUUUUUUGUAUUACUCUCCAUGUGUAUAAAUUAUUGAUCAUGUU,82.5
CAUGAGCAGCUCAGACAGCAGCAGGAAGAGAUGAGGCAACUAAGGGAAUCCAUUGCUGAACACAAACCUCAUAUUGAUAAGAUACUAAAAAUAGGUCCACAACUAAAGGAGCUAAACCCU,0.268
GAACCCACAGAAGAUUCUGGCAUUUCUCUGGAAAUGGCCGCUGUGACAGUGAAGGAGGAGUCAGAAGACCCUGAUUACUAUCAGUAUAACAUUCAAGGAAGCCAUCACUCCUCAGAAGGC,0.2
UAUAAUCUGCCAGGCUAUGUGACAGUAGGAAGGAAUGGUUUCCCCUAACAAGCCCAAUGCACUGGUCUGACUUUAUAAAUUAUUUAAUAAAAUGAACUAUUAUCAAAUAAAACGUAUGAA,0.968

# Further values, each from its own experiment
Substance,target,assay,test system,conditions,how to read,quantity,value
"PhoQ, residues 284 288 289 292 302 303 SACGEM","PhoP, residues 12 14 15 18 19 NHTVL (Escherichia coli, UniProt P23836)","Sort-seq, item: YFP reporter",E. coli,"PhoQ-PhoP variant library, added: 10 µM Mg2+","relative to: high Mg2+ state, higher = stronger signaling",fold induction,1.96

# Excerpt of the above (study 3):
Sequence,bound/input enrichment [ratio]
AUAGUUUUACGAGAUAGCCUUCAUCAACCACAGUAUGUAGAGAAACUAGAAAAGAUUCUUCGCUUUGUCAUAAAAGAAAAAGCUCUGACCUUGCAAGAUCUUGAUAAUAUCUGGGCAGCA,2.91
CGGGAACUCAAACAUCUGAAUCAUCUUGAUAUCUCAGAUGAUAAACAGUUUACAUCAGACAUAGCUCUUCGCUUACUAGAACAAAAAGACAUCCUACCUAACCUUGUUUCUCUGGAUGUU,0.543
